# Assay results of several laboratories.
# Each line is one published result; not all experiments were run side by side. ± marks the error that the study gave.
# FGFR1: Fibroblast growth factor receptor 1 (FGFR1, Homo sapiens, UniProt P11362)
# AGTR1: Type-1 angiotensin II receptor (AGTR1, Homo sapiens, UniProt P30556)
# TMPRSS11D: Transmembrane protease serine 11D (TMPRSS11D, Homo sapiens, UniProt O60235)
# PTGS2: Prostaglandin G/H synthase 2 (PTGS2, Homo sapiens, UniProt P35354)
# GP1 NS2B-NS3 protease: Genome polyprotein, NS2B-NS3 protease (GP1, West Nile virus, UniProt Q9Q6P4)
# PLG: Plasminogen (PLG, Homo sapiens, UniProt P00747)
SMILES,target,test,system,conditions,how to read,inhibition
OC(c1cccc(Cl)c1)c1c[nH]c2ncc(C(F)(F)F)cc12 (stereo not drawn),FGFR1,"enzyme activity, inhibitor",,0.1 µM,,1%
CCCCOC(=O)NS(=O)(=O)c1sc(CC(C)C)cc1-c1cc(Cn2ccnc2)ccc1C,AGTR1,"ligand displacement, radioligand",,"10 µM, cell membranes",,12%
Cc1c(-c2c3c(N)n[nH]c(=O)c3nn2-c2ccccc2)oc2cccc(F)c12,FGFR1,"enzyme activity, inhibitor, ELISA",,0.1 µM,,11%
Cc1ccc(O)c(C(=O)Nc2ccc(CN)cc2)c1,TMPRSS11D,"enzyme activity, inhibitor, fluorescence",,10 µM,,92%
Cc1ccnc(NS(=O)(=O)c2ccc(NC(=O)c3cc(-c4ccccc4C)nc4ccccc34)cc2)n1,"Peptidyl-prolyl cis-trans isomerase A (PPIA, Homo sapiens, UniProt P62937)","enzyme activity, inhibitor",,10 µM,,11.2%
CCCCOC(=O)NS(=O)(=O)c1sc(CC(C)C)cc1-c1cc(C)cc(Cn2ccnc2)c1,AGTR1,"ligand displacement, radioligand",,"10 µM, cell membranes",,26%
O=C(c1ccncc1)N1N=C2/C(=C/c3ccc4ccccc4c3)CCCC2C1c1ccc2ccccc2c1 (stereo not drawn),PTGS2,enzyme activity,,concentration not given,,90.1%
CSC(=S)N/N=C/C(C)=N/NC(=N)N,"Mycosin-1 (Mycolicibacterium thermoresistibile, UniProt G7CDQ2)","protease activity, inhibitor, quenched fluorescent peptide",,"150 µM, added: 20 µM fluorogenic peptide substrate",reference: DMSO control,75.8%
FC(F)(F)c1ccc(Cc2c[nH]c3ncc(C(F)(F)F)cc23)cc1,FGFR1,"enzyme activity, inhibitor",,0.1 µM,,24%
Oc1c(C(Nc2nc3ccccc3s2)c2cccc(OCc3ccccc3)c2)ccc2cccnc12 (stereo not drawn),GP1 NS2B-NS3 protease,"enzyme activity, inhibitor",,"25 µM, 0.1% CHAPS, added: tetrapeptide substrate",,96.79 ± 0.35%
O=C(O[C@H](CO)C(F)(F)F)N1C[C@@H]2[C@H](C1)[C@H]2c1ccn(-c2ccc(F)nc2)n1,"Neutral cholesterol ester hydrolase 1 (Mus musculus, UniProt Q8BLF1)",ABPP,mouse brain lysate,0.2 µmol/L,,no inhibition
NCc1ccc(NC(=O)c2ccc3ccc(Cl)cc3c2O)cc1,"Transmembrane protease serine 2 (TMPRSS2, Homo sapiens, UniProt O15393)","enzyme activity, inhibitor",,"10 µM, added: Boc-QAR-AMC",,< 20%
CCc1nc2ccc(Cl)cn2c1C(=O)NC/C=C(\C)CC/C=C(\C)CCC=C(C)C,"MT-CYB (Bos taurus, UniProt P00157)",complex III activity,bovine heart submitochondrial particles,10 µM,,50%
Cc1cc(O)c(C=O)c2c1C(=O)Oc1c(CO)c(O)c3c(c1O2)C(O)OC3=O (stereo not drawn),"cGMP-specific 3',5'-cyclic phosphodiesterase (PDE5A, Homo sapiens, UniProt O76074)","enzyme activity, inhibitor",,2.5 µg/mL,,45.8%
CO[C@@H]([C@@H](O)[C@H](O)C(=O)CO)[C@@H](C)O,"3-dehydroquinate synthase, chloroplastic (DHQS, Arabidopsis thaliana, UniProt Q8VYV7)",enzyme activity,,concentration not given,,no inhibition
CC(N)c1ccccc1 (stereo not drawn),"Krev interaction trapped protein 1, FERM domain (KRIT1, Homo sapiens, UniProt O00522)","HEG1-KRIT1 FERM interaction, flow cytometry bead",,concentration not given,,no inhibition
O=C(N[C@@H](CC1CCCCC1)C(=O)N[C@@H](C[C@H]1CCNC1=O)C(=O)C(=O)NC1CC1)OCc1cccc(Cl)c1,"Carboxypeptidase A1 (Homo sapiens, UniProt P15085)","enzyme activity, inhibitor",,"43 µM, inhibitor/enzyme ratio 250",,0%
CC(C)c1ccc(C(=O)Nc2ccc(CN)cc2)c(O)c1,PLG,"enzyme activity, inhibitor",,10 µM,,> 70%
NC(CNC(CNC(CC(=O)O)C(=O)O)C(=O)O)C(=O)O (stereo not drawn),angiotensin-converting enzyme (rabbit),,,"0.5 mM, Zn-depleted buffer, extended incubation",,~50%
O=C(NC1CCNCC1)c1ccc2ccccc2c1O,TMPRSS11D,"enzyme activity, fluorogenic substrate",,"10 µM, added: Boc-VPR-AMC",,< 20%
COc1ccccc1Nc1c(C(N)=O)cnc2c(C)cc(-c3ccc4cnn(C)c4c3)cc12,"Class 1 phosphodiesterase PDEB1 (PDEB1, Trypanosoma brucei, UniProt Q8WQX9)","enzyme activity, inhibitor",,10 µM,,60%
COc1cc(OC)cc(C(O)c2c[nH]c3ncc(C(F)(F)F)cc23)c1 (stereo not drawn),FGFR1,"enzyme activity, inhibitor",,0.1 µM,,61%
CCCC(CCC)C(=O)[O][Pt]([NH2])([NH2])([Cl])([Cl])[O]C(=O)c1ccccc1OC(C)=O,PTGS2,"enzyme activity, COX activity kit",PSN1,"1 µM, 24 h",,4.1%
NCc1ccc(NC(=O)c2ccc3ccccc3c2O)cc1,PLG,"enzyme activity, inhibitor",,10 µM,,> 70%
NCCCCCO[C@H]1O[C@H](COS(=O)(=O)O)[C@@H](O[C@@H]2O[C@@H](C(=O)O)[C@@H](O)[C@H](O)[C@H]2OS(=O)(=O)O)[C@H](O)[C@H]1NS(=O)(=O)O,"Heparanase (HPSE, Homo sapiens, UniProt Q9Y251)","enzyme activity, inhibitor, WST-1",,"50 µM, added: fondaparinux",,inactive
N=C(N)SCc1ccc(CSC(=N)N)cc1,"Tryptophan 2,3-dioxygenase (TDO2, Homo sapiens, UniProt P48775)","enzyme activity, inhibitor, biochemical",,concentration not given,,inactive
FC(F)(F)c1cnc2[nH]cc(Cc3cccc(Oc4ccccc4)c3)c2c1,FGFR1,"enzyme activity, inhibitor",,1 µM,,64%
Nc1nc(Nc2ccccc2)sc1C(=O)c1ccccc1,"Mitogen-activated protein kinase 15 (MAPK15, Homo sapiens, UniProt Q8TD08)","enzyme activity, inhibitor",,10 µM,,> 90%
CC(C)C1=CC23CCC4C(C)(C(=O)O)CCCC4(C)C2CC1C(C(=O)O)C3C(=O)O (stereo not drawn),"Replication protein A 70 kDa DNA-binding subunit, with p53 (RPA1, Homo sapiens, UniProt P27694)","binding to p53, ELISA",,"100 µM, added: immobilized p53-GST, 250 nM RPA",,inhibited
COc1cc(C(=O)NC2CCC(N3CCN(CC4CCC5(CCCC5)C4)CC3)CC2)c(F)cc1Nc1ncc2c(n1)N(C1CCCC1(F)F)CC(F)(F)C(=O)N2C (stereo not drawn),"Ephrin type-A receptor 2 (EPHA2, Homo sapiens, UniProt P29317)","cell-free assay, TR-FRET",,10 µM,,0.61%
CCOC(=O)NS(=O)(=O)c1sc(CC(C)C)cc1-c1ccc2c(c1)CCN(S(C)(=O)=O)C2,AGTR1,"ligand displacement, radioligand",,"10 µM, cell membranes",,19%
Oc1c(C(Nc2nccs2)c2cccc(OCc3ccccc3)c2)ccc2cccnc12 (stereo not drawn),GP1 NS2B-NS3 protease,"enzyme activity, inhibitor",,"10 µM, 0.1% CHAPS, added: tetrapeptide substrate",,72 ± 1.38%
FC(F)(F)c1cnc2[nH]cc(Cc3ccc(OCc4ccccc4)cc3)c2c1,FGFR1,"enzyme activity, inhibitor",,0.1 µM,,-4%
Cc1cccc(O)c1C(=O)Nc1ccc(CN)cc1,TMPRSS11D,"enzyme activity, fluorogenic substrate",,"10 µM, added: Boc-VPR-AMC",,< 20%
OC(c1ccc(OCc2ccccc2)cc1)c1c[nH]c2ncc(C(F)(F)F)cc12 (stereo not drawn),FGFR1,"enzyme activity, inhibitor",,0.1 µM,,-1%
O=C(Nc1ccccc1O)c1ccc(-c2ccc(Cl)cc2Cl)o1,"Heat shock protein HSP 90-beta, N-terminal domain (HSP90AB1, Homo sapiens, UniProt P08238)","binding, fluorescence polarization",,"10 µM, added: FITC-geldanamycin",,no inhibition

# Repeated from above:
SMILES,target,test,system,conditions,how to read,inhibition
CSC(=S)N/N=C/C(C)=N/NC(=N)N,"Mycosin-1 (Mycolicibacterium thermoresistibile, UniProt G7CDQ2)","protease activity, inhibitor, quenched fluorescent peptide",,"150 µM, added: 20 µM fluorogenic peptide substrate",reference: DMSO control,75.8%
Oc1c(C(Nc2nccs2)c2cccc(OCc3ccccc3)c2)ccc2cccnc12 (stereo not drawn),GP1 NS2B-NS3 protease,"enzyme activity, inhibitor",,"10 µM, 0.1% CHAPS, added: tetrapeptide substrate",,72 ± 1.38%
NCc1ccc(NC(=O)c2ccc3ccc(Cl)cc3c2O)cc1,"Transmembrane protease serine 2 (TMPRSS2, Homo sapiens, UniProt O15393)","enzyme activity, inhibitor",,"10 µM, added: Boc-QAR-AMC",,< 20%
